Measured values pooled from the literature.
Parts stem from different laboratories: compare values within a part only.

Block 1 — method: universal PBM; form: double-stranded DNA, one strand shown; sample: in vitro; concentration: not given; direction: higher = stronger binding; quantity: E-score
Target: Sal-like protein 4, full length isoform B (SALL4, Homo sapiens, UniProt Q9UJQ4-2, residues 1-616)
Notes: 8-mer, flanks averaged, mean of replicates
CACCCGAA: -0.0192
GGACATCA: 0.0667
GAAACCCC: -0.26
CATCGCAC: -0.128
TAAACCGA: 0.0664
GCCTTACC: -0.106
ATGTCCGA: -0.0353
AACATCAT: 0.268
GACTTGGC: -0.179
GACGCTAA: -0.0544
CGGTGTAC: -0.215
CTTACAAC: 0.206
CGACCTGC: -0.216
AATGTCTG: 0.139
ACCCGGAA: -0.173
AGCAGGTC: -0.175
TGCGAGAA: -0.142
ACTTCTAT: 0.166
CTAACAAA: 0.248
CAGCAACA: 0.134
CTGGGTAA: 0.00365
CCGGAGGC: -0.355
TACGGAAA: 0.125
AGCACGCC: -0.251
ACACACGA: -0.0164

Block 2 — method: competition protein-binding microarray; form: double-stranded DNA, one strand shown; sample: in vitro; concentration: 2 µM; with: Pho4 competitor, 0.05 µM; direction: higher = stronger binding; quantity: fluorescence intensity
Target: Centromere-binding protein 1, full length, His-tagged (CBF1, Saccharomyces cerevisiae, UniProt P17106, residues 1-351)
Chain of UniProt P17106 (whole entry, looked up): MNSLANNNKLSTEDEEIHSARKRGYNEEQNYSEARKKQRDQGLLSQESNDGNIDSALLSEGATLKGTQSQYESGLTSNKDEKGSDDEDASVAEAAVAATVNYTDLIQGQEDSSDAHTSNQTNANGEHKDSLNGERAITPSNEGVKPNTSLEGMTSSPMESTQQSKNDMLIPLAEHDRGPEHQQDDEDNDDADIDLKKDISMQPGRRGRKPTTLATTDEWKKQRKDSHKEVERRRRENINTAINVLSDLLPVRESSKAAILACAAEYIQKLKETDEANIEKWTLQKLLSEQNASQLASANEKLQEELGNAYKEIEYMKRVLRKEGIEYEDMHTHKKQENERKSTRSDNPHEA
Notes: whole 60-bp probe, lowest competitor level
GTCTTCGTCGTCGACACCGTGATGGGATTGTAGTTCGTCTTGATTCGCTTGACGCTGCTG: 87.8 a.u.
CATACCCAACCTTGCCCCGTGGGTGAAGATATTTGTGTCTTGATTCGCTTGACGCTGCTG: 89.8 a.u.
TAGTCTGCGGAGAGCAACGTGCAAAAACTAAAGGTAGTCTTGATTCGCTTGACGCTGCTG: 112 a.u.
TTAAGAAGCCTTTTCCATGTGAGGAAGCTTCGCCTTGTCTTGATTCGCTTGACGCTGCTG: 61 a.u.
AAATTATAATTCGCTCTCATGATAACCACATCTGTCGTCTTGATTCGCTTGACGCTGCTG: 72.5 a.u.
CTAGAAAAGAAACACCGCGTGGTGAATCTATGTCCAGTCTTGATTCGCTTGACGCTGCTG: 100 a.u.
CTTTCCCGATCTTGTGCGGTGGGTGTAGCACATTTGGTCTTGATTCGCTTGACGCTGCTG: 62 a.u.
AAAGCGGTAATTTGTCACTCCACTTCACATATCTATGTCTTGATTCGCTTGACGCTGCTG: 81.2 a.u.
TGCGCAACAACTTGTGGCGTGGGTGTATGTCTAGAAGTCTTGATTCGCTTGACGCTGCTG: 66.6 a.u.
AAAGCGGTAATTTTTCACGTGCAATCAAATATCTATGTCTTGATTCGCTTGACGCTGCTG: 1740 a.u.
AGGACCTGCGTCCTTCACGCTGAAGCGGCAGCAAGCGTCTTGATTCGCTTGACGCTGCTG: 57 a.u.
CCGCGTTGAGCAGCTCTCCTGCGGGCTTTCACAGAGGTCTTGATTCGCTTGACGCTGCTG: 57.6 a.u.
CGTCCTAGTGATTGTGCAGTGGGTGCCATGAGGAAGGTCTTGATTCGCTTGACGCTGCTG: 84.5 a.u.
CATACCCAACCTTGGTCAGTGGGTGAAGATATTTGTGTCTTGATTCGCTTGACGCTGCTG: 70.6 a.u.
CTTTCCCGATCTTGACAAGTGGGTGTAGCACATTTGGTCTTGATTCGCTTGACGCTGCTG: 71.6 a.u.
ATTTCGCCCAGAGCGCACATGATCGGGTAGATAACCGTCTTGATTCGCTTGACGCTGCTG: 350 a.u.
TGCAATAAGAAAACACACGTTAAATTACACTCAGGGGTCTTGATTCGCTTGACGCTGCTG: 82.9 a.u.
AATGCAAACTGGGAGAATGTGACTCGATCGAGGAAAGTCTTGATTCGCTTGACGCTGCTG: 86.9 a.u.
GTCTTGTCTCATTTTCACGTGACTTTCCCCACTTCAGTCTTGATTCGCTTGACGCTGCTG: 4860 a.u.
CTGAGCATAGCCAATCACGTGGCCCACTCCCCGGCTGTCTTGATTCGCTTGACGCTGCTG: 4940 a.u.
CTAATCAGCAAGACACATGTGCCTTGCAGTAGGGCAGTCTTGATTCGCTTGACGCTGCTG: 153 a.u.
CATACCCAACCTTGTGCGGTGGGTGAAGATATTTGTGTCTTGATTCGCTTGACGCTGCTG: 63.6 a.u.
GTCTTGTCTCATTGGTATGTGGGTGTCCCCACTTCAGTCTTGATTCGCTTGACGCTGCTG: 96.2 a.u.
TTCAAGGATCGAAAGCACGTCGCATAATACGGTAATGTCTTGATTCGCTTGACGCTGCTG: 79.7 a.u.
GCACAGAAGCCCCATCACGTGACAAACAAGTGCTTCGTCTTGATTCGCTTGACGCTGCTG: 10700 a.u.

Block 3 — method: RNA Bind-n-Seq; form: RNA; sample: in vitro; concentration: not given; baseline: input RNA pool; direction: higher = stronger binding; quantity: bound/input enrichment
Target: RING finger protein unkempt homolog, zinc fingers 1-6, GST-SBP tag (UNK, Homo sapiens, UniProt Q9C0B0, residues 30-357)
Chain of UniProt Q9C0B0 (30-357, looked up): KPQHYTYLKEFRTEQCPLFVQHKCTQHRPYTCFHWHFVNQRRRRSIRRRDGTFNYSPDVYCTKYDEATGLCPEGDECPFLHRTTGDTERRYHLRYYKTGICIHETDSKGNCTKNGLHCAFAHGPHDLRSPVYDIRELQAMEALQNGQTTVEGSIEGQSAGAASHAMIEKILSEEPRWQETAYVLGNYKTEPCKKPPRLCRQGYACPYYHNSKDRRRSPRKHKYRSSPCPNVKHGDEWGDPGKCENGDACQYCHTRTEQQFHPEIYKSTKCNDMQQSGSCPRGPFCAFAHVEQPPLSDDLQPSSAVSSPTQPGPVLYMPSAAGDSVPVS
Notes: RNA with constant flanks, human-mouse chimeric sites, ends assumed
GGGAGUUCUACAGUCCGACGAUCACCAUUUCUGAAUACACGGCUUUGUGUUGUAUUUACUUACGGUAUUAAAUUAUUAUUCUGCUUAGCUUAUAAUAAGGAUAAUUGCAUUUAAAGAGGUUACUGAAUGUUACUCUGAAACUUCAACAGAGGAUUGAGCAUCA: 0.334 ratio
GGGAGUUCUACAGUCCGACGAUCGGAAGCACAAUGAUGGAGAUUGAUGGUGACAAAGGCAAGCAGGGCGGGCCCACCUACUACAUAGAUACCAAUGCCCUCCGCGUGCCCAGGGAGAACAUGGAGGCCAUCUCACCACUCAAGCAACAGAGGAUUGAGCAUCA: 0.288 ratio
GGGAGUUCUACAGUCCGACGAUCCAGCCUCAGAGCCCUGACUUCCUGGAUAUUACCAACCCUAAAGCGGUAUUAGAAAAUGCAUUGAGAAACUUCGCCUGUCUGACGACUGGAGAUGUGAUUGCCAUCAACUACAAUGAGAAGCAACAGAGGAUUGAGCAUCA: 0.516 ratio
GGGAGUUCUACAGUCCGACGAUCGGCUGCUGGUGACUGUCCUGGAGUGGCUGGAGUUCCCGCCGGAGCGCGCGCAGGUUAAUUUUAGAAAAUGCCAAGUAGGAAGUUUGUUGAGGGUGAAGUGGUCAGAGGUCGAUGGCCUGGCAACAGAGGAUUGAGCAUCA: 5.02 ratio
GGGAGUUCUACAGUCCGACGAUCAACAGAUUUCUCAAGCACAUUCCAAGCGAGAAUGCUGGGGUGAUCAUUGUUGCCCAUGUGCCUUCUGACUGAGCUUUAAUGCUGUUCCAUGUUACAUUGAUGUUCUUCUCCAGAAUUGUUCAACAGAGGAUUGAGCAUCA: 0.117 ratio
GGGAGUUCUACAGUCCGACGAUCACUCAGAGAUCCACCUCAAUUGAAGUGGGGAGUAAAGGUGUGGCCACCACACCUAACUUCAUAGACAUAUAUUUUUUUUAAUAUGAAUCUUCCUGUUCGUCCAGGGAAGAAAGAUUUGUUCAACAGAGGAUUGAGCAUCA: 26.7 ratio
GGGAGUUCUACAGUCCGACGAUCGGCUGCUGGUGACUGUCCUGGAGUGGCUGGAGUUCCCGCCGGAGCGCGCGCAGGUUAAUUUUAGAAAAUGCCAAGUAGGAAGUUUGUUGAGGGUGAAGUGGUAAGAGGCCGAUGGCCUGGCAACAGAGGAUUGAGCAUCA: 6.79 ratio
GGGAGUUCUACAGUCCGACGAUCGCUCCUCCCCGCUCUGCAGCCUGGGGACACUGGGCUGGGACCAGAAUCUUAUUUUUUUUUAAAACUCUCAGUGUAACUGUAUCCCGUGACAUUUCAUUUUUUUUAAAUAGUGUAUUUUUUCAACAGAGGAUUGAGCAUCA: 13.1 ratio
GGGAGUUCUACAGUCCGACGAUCACACAAUAUGAGACCAACAGCAUGGACUUCAAAGUUGGGGCGGAUGGGACAGUCUUCGCCACCCGGGAGCUGCAGGUCCCCUCCGAGCAGGUGGCGUUUACCGUCACUGCAUGGGACAGCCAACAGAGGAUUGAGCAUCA: 0.186 ratio
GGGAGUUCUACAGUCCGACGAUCAAUGUUCUUAAUAUUUUUGAAUAAAUGAAGCUAAAAUUUUGCUUUCUGGUACAACACGCAUUAAUAAAAGGUUAAGUUUUGUUUUCCACUGAAGUACUAUUUAACAUCUCAGAAAAAAACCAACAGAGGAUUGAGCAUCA: 0.356 ratio
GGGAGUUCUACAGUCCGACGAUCAAAUCGUGUGUGUCCAAUAUUGAAAGUACUUUAUCUGCACUCCAAUAUGUAAGCAGUAUAGUAGUUUCUUUAGAGAAUAGGUCAGCCAUUGUAAAGUACAAUGCAAGCUUAGUCACUCCACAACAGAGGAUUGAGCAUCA: 2.75 ratio

Block 4 — method: RNA Bind-n-Seq; form: RNA; sample: in vitro; concentration: 1 µM; notes: whole 134-nt RNA, ends assumed; with: 150 mM KCl; baseline: input library; direction: higher = stronger binding; quantity: log2 enrichment
Target: Ras GTPase-activating protein-binding protein 1, RRM domain (G3BP1, Homo sapiens, UniProt Q13283)
Chain of UniProt Q13283 (whole entry, looked up): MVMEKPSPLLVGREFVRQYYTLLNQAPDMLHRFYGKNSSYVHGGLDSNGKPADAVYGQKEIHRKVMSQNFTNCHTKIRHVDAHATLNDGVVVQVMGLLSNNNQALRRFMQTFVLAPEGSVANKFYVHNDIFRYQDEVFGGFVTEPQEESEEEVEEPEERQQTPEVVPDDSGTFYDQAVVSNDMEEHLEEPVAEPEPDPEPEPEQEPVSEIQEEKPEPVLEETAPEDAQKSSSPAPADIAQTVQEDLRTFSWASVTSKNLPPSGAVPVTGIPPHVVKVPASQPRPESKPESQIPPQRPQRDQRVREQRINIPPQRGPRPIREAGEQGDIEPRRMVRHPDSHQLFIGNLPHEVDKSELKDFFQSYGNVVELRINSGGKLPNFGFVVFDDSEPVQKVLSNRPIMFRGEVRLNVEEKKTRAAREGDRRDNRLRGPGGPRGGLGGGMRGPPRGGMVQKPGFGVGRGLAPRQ
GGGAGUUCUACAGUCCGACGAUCUCAAGUCCUGUGCUACACAUCGUAUGUACCGAAUCGGAGGUUUGGAAAAAAAGGAAAGUAUUAUGUUACGCCGUUCGGAUCUGCACUUCCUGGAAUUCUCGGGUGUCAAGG: -0.184
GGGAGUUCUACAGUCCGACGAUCCACAGACAACACGCACCAAAACAGACACAGAGGGAAGGGGUUGGGAUGGGGACAGGGUGCACAGCAGGGCGGGGUAGGACCCCAGCCCCUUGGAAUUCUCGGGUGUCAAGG: -0.0446
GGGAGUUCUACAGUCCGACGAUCGUCCUGUGCUACACAUCGUAUGUACCGAAUCGGGGCCCCCGGGCCCCCGGGGCCCCCGGAAAGUAUUAUGUUACGCCGUUCGGAUCUGCAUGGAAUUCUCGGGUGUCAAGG: -0.873
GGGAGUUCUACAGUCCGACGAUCUCCUGUGCUACACAUCGUAUGUACCGAAUCGGGGAAAAAGGGGAAAAAGGAAAAAGGGGAAAGUAUUAUGUUACGCCGUUCGGAUCUGCAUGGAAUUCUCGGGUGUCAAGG: -0.145
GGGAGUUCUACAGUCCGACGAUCCUCAAGUCCUGUGCUACACAUCGUAUGUACCGAAUCGGGGUUGGGUUGGUUGGGAAAGUAUUAUGUUACGCCGUUCGGAUCUGCACUUCCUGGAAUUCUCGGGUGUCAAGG: -0.0274
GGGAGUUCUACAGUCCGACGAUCUGGGAGGUGGAUUUUGUUUAUUUUUUUAGCUCAUUUCCAGGGGUGGGAAUUUUUUUUUAAUAUGUGUCAUGAAUAAAGUGGUUUUUGAAAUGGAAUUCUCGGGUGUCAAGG: 1.59
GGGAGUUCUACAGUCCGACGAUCAGUCCUGUGCUACACAUCGUAUGUACCGAAUCGGGUUUGGGAAAGGGUUUUUUUGGGAAAGUAUUAUGUUACGCCGUUCGGAUCUGCACUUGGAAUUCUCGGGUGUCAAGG: 0.441
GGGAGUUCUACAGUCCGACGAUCCAAGUCCUGUGCUACACAUCGUAUGUACCGAAUCGGUUUUUGGUUUUUUUGGAGGAAAGUAUUAUGUUACGCCGUUCGGAUCUGCACUUCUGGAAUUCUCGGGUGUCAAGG: -0.262
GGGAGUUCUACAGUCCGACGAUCACCAUGCAGGUGGGCAUCUUUGGGAAGUGGGGCAAGGGGGGGAUAGGGAGGCGGGUAACACUUUGGGAACAGGUGGUCCCAGGUCGUUUCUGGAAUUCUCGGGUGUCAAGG: 0.615
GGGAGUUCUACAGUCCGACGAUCAGUCCUGUGCUACACAUCGUAUGUACCGAAUCGGGGCCCCGGGCCCCGGCCCCGGGGAAAGUAUUAUGUUACGCCGUUCGGAUCUGCACUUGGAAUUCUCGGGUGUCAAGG: -0.755
